Experimental data from different studies.
Protocols differ between the studies behind these lines.

Structure (SMILES) | organism | test | system | setting | measurement | result
CC[C@H](C)[C@H](NC(=O)[C@H](CCCCN)NC(=O)[C@@H](NC(=O)[C@H](Cc1ccc(O)cc1)NC(=O)[C@H](CCCCN)NC(=O)[C@H](CCCCN)NC(=O)CNC(=O)[C@H](CCCCN)NC(=O)[C@@H](NC(=O)[C@H](C)NC(=O)[C@H](CC(C)C)NC(=O)[C@H](Cc1c[nH]c2ccccc12)NC(=O)CNC(=O)[C@@H](NC(=O)[C@H](Cc1ccccc1)NC(=O)[C@H](CCCCN)NC(=O)[C@H](CC(C)C)NC(=O)[C@H](Cc1ccccc1)NC(=O)[C@H](C)NC(=O)CNC(=O)[C@@H](N)CCSC)C(C)C)[C@@H](C)O)C(C)C)C(=O)N[C@@H](C)C(=O)N[C@@H](Cc1c[nH]c2ccccc12)C(=O)N[C@@H](CC(=O)O)C(=O)N[C@@H](Cc1c[nH]cn1)C(=O)N[C@@H](CCCCN)C(=O)NCC(=O)N[C@H](C(=O)N[C@H](C(=O)N[C@@H](CCSC)C(=O)N[C@@H](CCCCN)C(=O)N[C@@H](Cc1c[nH]c2ccccc12)C(=O)N[C@@H](CC(C)C)C(=O)N[C@@H](CC(N)=O)C(=O)N[C@@H](C)C(=O)NCC(=O)N[C@@H](CCC(N)=O)C(=O)N[C@H](C(=O)N[C@@H](Cc1ccccc1)C(=O)N[C@H](C(=O)N[C@@H](Cc1c[nH]c2ccccc12)C(=O)N[C@H](C(=O)N[C@@H](Cc1ccc(O)cc1)C(=O)N[C@@H](CCC(=O)O)C(=O)N[C@@H](CCC(N)=O)C(=O)N[C@H](C(=O)N[C@@H](CCCCN)C(=O)N[C@@H](CCCCN)C(=O)N[C@@H](CC(C)C)C(=O)N[C@@H](Cc1c[nH]c2ccccc12)C(=O)N[C@H](C(=O)O)[C@@H](C)O)[C@@H](C)CC)C(C)C)[C@@H](C)O)[C@@H](C)O)[C@@H](C)CC)[C@@H](C)O | Streptococcus dysgalactiae | broth microdilution |  | 37 °C | MIC | 41.7 µg/mL
N=C(N)c1ccc(OCc2cc(COc3ccc(C(=N)N)cc3)cc(-c3ccccc3)c2)cc1 | Escherichia coli |  | mcr-1 | 20 h, compound alone | MIC | 100 µg/mL
N=C(N)NCCC[C@H](NC(=O)[C@H](Cc1c[nH]c2ccccc12)NC(=O)[C@H](CCCNC(=N)N)NC(=O)[C@H](Cc1c[nH]c2ccccc12)NC(=O)[C@H](Cc1c[nH]c2ccccc12)NC(=O)[C@H](Cc1c[nH]c2ccccc12)NC(=O)[C@H](CCCNC(=N)N)NC(=O)[C@H](Cc1c[nH]c2ccccc12)NC(=O)[C@@H](N)CCCNC(=N)N)C(N)=O | Candida albicans | broth microdilution | CGMCC 2.209, RPMI 1640-MOPS | 48 h, 30 °C, added: ZnCl2 8 µM | MIC | 8 µM
CCN1CCN(C(=O)N[C@@H](C(=O)N[C@@H]2C(=O)N3[C@@H]2SC(C)(C)[C@@H]3C(=O)O)c2ccccc2)C(=O)C1=O | Escherichia coli | broth microdilution | Keio mutant JW0146-2 | 18 h, ferric hydroxamate uptake gene | MIC | 3.12 µg/mL
CC[C@H](C)[C@H](NC(=O)CN)C(=O)NCC(=O)N[C@@H](C)C(=O)N[C@H](C(=O)N[C@@H](CC(C)C)C(=O)N[C@@H](CCCCN)C(=O)N[C@H](C(=O)N[C@@H](CC(C)C)C(=O)N[C@H](C(=O)N[C@H](C(=O)NCC(=O)N[C@@H](CC(C)C)C(=O)N1CCC[C@H]1C(=O)N[C@@H](C)C(=O)N[C@@H](CC(C)C)C(=O)N[C@H](C(=O)N[C@@H](CO)C(=O)N[C@@H](Cc1c[nH]c2ccccc12)C(=O)N[C@H](C(=O)N[C@@H](CCCCN)C(=O)N[C@@H](CCCNC(=N)N)C(=O)N[C@@H](CCCCN)C(=O)N[C@@H](CCCNC(=N)N)C(=O)N[C@@H](CCC(N)=O)C(=O)N[C@@H](CCC(N)=O)C(N)=O)[C@@H](C)CC)[C@@H](C)CC)[C@@H](C)O)[C@@H](C)O)C(C)C)C(C)C | Candida albicans | broth microdilution | 56467, RPMI 1640-MOPS | 48 h, 30 °C | MIC | 4 µM
COc1cc2c(cc1C(F)(F)F)N(C(=O)Nc1cc(F)cc(-c3cccnc3)c1)CC2 | Plasmodium falciparum |  | 7G8 |  | IC50 | 1580 nM
CC1(C)SC2C(NC(=O)C(NC(=O)C3=C(O)C(Cc4ccccc4)NC3=O)c3ccccc3)C(=O)N2C1C(=O)O (stereo not drawn) | Escherichia coli | broth microdilution | Keio mutant JW2142-1 |  | MIC | 12.5 µg/mL
CC(=O)N1CCN(c2ccc(OCC3COC(Cn4ccnc4)(c4ccc(Cl)cc4Cl)O3)cc2)CC1 (stereo not drawn) | Candida albicans | broth microdilution | 56214, RPMI 1640-MOPS | 48 h, 30 °C | MIC | 64 µM
CCCCCCCCCCCC(=O)C(F)(F)P(=O)(O)O | Streptococcus pneumoniae |  |  |  | MIC | > 200 µg/mL
Nc1nccc2c1ncn2[C@@H]1O[C@H](CO)[C@@H](O)[C@H]1O | Plasmodium falciparum |  | D10 |  | IC50 | 3160 nM
N=C(N)NCCC[C@H](NC(=O)[C@H](Cc1c[nH]c2ccccc12)NC(=O)[C@H](CCCNC(=N)N)NC(=O)[C@H](Cc1c[nH]c2ccccc12)NC(=O)[C@H](Cc1c[nH]c2ccccc12)NC(=O)[C@H](Cc1c[nH]c2ccccc12)NC(=O)[C@H](CCCNC(=N)N)NC(=O)[C@H](Cc1c[nH]c2ccccc12)NC(=O)[C@@H](N)CCCNC(=N)N)C(=O)N[C@@H](Cc1c[nH]c2ccccc12)C(N)=O | Candida albicans | broth microdilution | 58288, RPMI 1640-MOPS | 48 h, 30 °C | MIC | 8 µM
N=C(N)c1ccc(OCCCCCOc2ccc(C(=N)N)cc2)cc1 | Escherichia coli |  | BW25113 mcr-1 | compound alone | MIC | > 200 µg/mL
N=C(N)NCCC[C@H](NC(=O)CN)C(=O)N[C@@H](Cc1c[nH]c2ccccc12)C(=O)N[C@@H](CCCNC(=N)N)C(=O)N[C@@H](Cc1c[nH]c2ccccc12)C(=O)N[C@@H](Cc1c[nH]c2ccccc12)C(=O)N[C@@H](Cc1c[nH]c2ccccc12)C(=O)N[C@@H](CCCNC(=N)N)C(=O)N[C@@H](Cc1c[nH]c2ccccc12)C(=O)N[C@@H](CCCNC(=N)N)C(=O)N[C@@H](Cc1ccccc1)C(N)=O | Candida albicans | broth microdilution | CGMCC 2.209, RPMI 1640-MOPS | 48 h, 30 °C, added: FeCl3 4 µM | MIC | 4 µM
CC(C)(C)Oc1ccc(CC2NC(=O)C(C(=O)NC(C(=O)NC3C(=O)N4C3SC(C)(C)C4C(=O)O)c3ccccc3)=C2O)cc1 (stereo not drawn) | Escherichia coli | broth microdilution | ATCC 35218, low-level TEM-1 | added: clavulanic acid 6 µg/mL | MIC | 100 µg/mL
CCCCCCCCCCCC(=O)NP(=O)(O)O | Streptococcus pneumoniae |  |  |  | MIC | 100 µg/mL
CC1(C)SC2C(NC(=O)C(NC(=O)C3=C(O)C(Cc4ccc([N+](=O)[O-])cc4)NC3=O)c3ccccc3)C(=O)N2C1C(=O)O (stereo not drawn) | Escherichia coli | broth microdilution | Keio mutant JW5086-3 | 18 h, ferrienterobactin permease gene | MIC | 25 µg/mL
CCCCCCCCCCCC(=O)CP(=O)(O)O | Streptococcus pneumoniae |  |  |  | MIC | 25 µg/mL
CC1(C)SC2C(NC(=O)C(NC(=O)C3=C(O)CNC3=O)c3ccccc3)C(=O)N2C1C(=O)O (stereo not drawn) | Escherichia coli | broth microdilution | Keio mutant JW5195-1 | 18 h | MIC | 25 µg/mL
Cc1ccc2[nH]c3c(c2c1)CCCC3NCCc1ccc(O)cc1 (stereo not drawn) | Staphylococcus simulans | broth microdilution | 22 |  | MIC | 16 µg/mL
CC1(C)SC2C(NC(=O)C(NC(=O)C3=C(O)C(Cc4ccco4)NC3=O)c3ccccc3)C(=O)N2C1C(=O)O (stereo not drawn) | Escherichia coli | broth microdilution | Keio mutant JW5195-1 | 18 h | MIC | 6.25 µg/mL
CC(C)C[C@H](NC(=O)[C@@H](NC(=O)[C@H](CCCNC(=N)N)NC(=O)[C@H](CCC(N)=O)NC(=O)[C@H](Cc1ccccc1)NC(=O)[C@H](Cc1ccc(O)cc1)NC(=O)[C@H](CC(N)=O)NC(=O)[C@H](Cc1c[nH]c2ccccc12)NC(=O)[C@@H](NC(=O)[C@H](CCCNC(=N)N)NC(=O)[C@H](CCCCN)NC(=O)[C@@H](N)Cc1ccccc1)C(C)C)C(C)C)C(=O)N[C@H](C(=O)N[C@@H](CCCCN)C(=O)N[C@@H](CCCCN)C(N)=O)C(C)C | Salmonella typhimurium | broth dilution | SL1344 |  | MIC | 25 µM

For quick reference, copied from above:
Structure (SMILES) | organism | test | system | setting | measurement | result
CCCCCCCCCCCC(=O)C(F)(F)P(=O)(O)O | Streptococcus pneumoniae |  |  |  | MIC | > 200 µg/mL
Nc1nccc2c1ncn2[C@@H]1O[C@H](CO)[C@@H](O)[C@H]1O | Plasmodium falciparum |  | D10 |  | IC50 | 3160 nM
